Measured values gathered from unrelated publications.
Parts stem from different laboratories: compare values within a part only. Changes are numbered by the printed parent chain.

Block 1
Target: ABI1, truncated, D143A, DHFR fusion (Arabidopsis thaliana)
Technique: DHFR PCA, deep sequencing
Medium: yeast
Notes: methotrexate growth selection, single substitutions
Together with: (+)-ABA 1.4 µM
Relative to: wild-type fitted maximum
Reading: higher = stronger binding
Starting sequence: PYL1, truncated, DHFR fusion (Arabidopsis thaliana); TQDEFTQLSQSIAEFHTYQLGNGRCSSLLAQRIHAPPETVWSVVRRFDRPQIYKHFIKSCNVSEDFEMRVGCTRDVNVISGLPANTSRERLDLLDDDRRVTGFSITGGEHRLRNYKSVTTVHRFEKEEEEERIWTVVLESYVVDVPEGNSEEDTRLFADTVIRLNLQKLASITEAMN; partner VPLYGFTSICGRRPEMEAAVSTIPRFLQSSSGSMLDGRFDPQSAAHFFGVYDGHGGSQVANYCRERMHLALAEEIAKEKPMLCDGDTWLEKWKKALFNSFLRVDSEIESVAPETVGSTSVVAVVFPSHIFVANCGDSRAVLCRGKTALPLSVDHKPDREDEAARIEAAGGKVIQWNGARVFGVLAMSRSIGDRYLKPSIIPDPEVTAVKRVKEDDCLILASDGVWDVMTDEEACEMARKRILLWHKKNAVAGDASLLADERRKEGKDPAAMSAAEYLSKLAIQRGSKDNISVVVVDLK
For `V161A`, “relative binding score” read 16%.
Under “relative binding score”, `K168E` is recorded as -3.86%.
For `L91Q`, “relative binding score” read 6.39%.
Under “relative binding score”, `E129P` is recorded as 76.4%.
`S171H`: “relative binding score” 56.8%.
For `A13E`, “relative binding score” read 59.8%.
Under “relative binding score”, `T86P` is recorded as -5.7%.
`T101C` — result for “relative binding score”: 42.4%.
Under “relative binding score”, `S42P` is recorded as 8.3%.
For `R163S`, “relative binding score” read 34.4%.
`R111V` — result for “relative binding score”: -3.11%.
`G108S` — result for “relative binding score”: -5.94%.
For `S63H`, “relative binding score” read 42%.
`R45P` — result for “relative binding score”: 10.7%.
For `G102F`, “relative binding score” read 0.145%.

Block 2
Target: Interferon regulatory factor 7, full length, phosphomimetic (IRF7, Homo sapiens, UniProt Q92985, residues 1-503, S101K/S471D/S472D/S475D/S476D/S477D/S483D/S484D/S487D)
Technique: protein-binding microarray
Molecule type: double-stranded DNA, one strand shown
Medium: in vitro
Tested at: 250 nM
Notes: 60-bp whole probe
Together with: salmon DNA 0.4 mg/ml
Relative to: random background probes
Reading: higher = stronger binding
Constant ends, left off below: GCCTAGCAC … GTCTTGATTCGCTTGACGCTGCTG
Residues (chain): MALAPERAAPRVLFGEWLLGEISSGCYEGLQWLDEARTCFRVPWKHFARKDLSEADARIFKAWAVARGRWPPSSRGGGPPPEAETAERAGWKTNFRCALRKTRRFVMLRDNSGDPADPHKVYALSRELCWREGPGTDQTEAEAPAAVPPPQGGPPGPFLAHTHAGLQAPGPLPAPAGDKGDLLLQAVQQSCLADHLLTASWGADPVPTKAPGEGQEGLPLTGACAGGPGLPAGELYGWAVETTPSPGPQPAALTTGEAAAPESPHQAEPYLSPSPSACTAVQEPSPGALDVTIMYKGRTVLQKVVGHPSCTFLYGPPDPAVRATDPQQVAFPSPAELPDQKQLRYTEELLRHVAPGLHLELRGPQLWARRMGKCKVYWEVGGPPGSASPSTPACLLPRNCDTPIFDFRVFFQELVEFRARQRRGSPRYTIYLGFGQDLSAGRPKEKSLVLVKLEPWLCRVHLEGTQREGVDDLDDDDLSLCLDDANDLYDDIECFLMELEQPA
The log fluorescence of `TCAAGTTTGTATATATTACTGTGCTAG` is reported as 0.0475 z-score.
With `GACGGTATCGGATTTCGGGACGTGCTA` the log fluorescence was 1.05 z-score.
With `TTCTAAACCATTTTGGTTTTGTGCTAG` the log fluorescence was 0.175 z-score.
With `TTAGGTAACCTACTGCTTTAGTGCTAG` the log fluorescence was -0.18 z-score.
`GACGGTTTCGCACTGGGGACGTGCTAG` gave a log fluorescence of 3.6 z-score.
`GACGGTATCGGGTAGCGGGACGTGCTA` gave a log fluorescence of 0.136 z-score.
For `GACTATTTCAGTATCGAGACGTGCTAG`, the log fluorescence was 1.08 z-score.
With `GATTGGTTGAACATGAACTTGTGCTAG` the log fluorescence was 0.305 z-score.
`TTAGGACTGGGTCTCGGTTCGTGCTAG` has a log fluorescence of 2.84 z-score.
The log fluorescence of `TTAGGACTGCTTATCCCTTAGTGCTAG` is reported as -0.118 z-score.
`TCAGTTACCCACCTCAGACTGTGCTAG` gave a log fluorescence of 0.414 z-score.
For `TTAGGTATCGACTTTCGGATAGTGCTA`, the log fluorescence was 2.2 z-score.
`TTAGACCTGAGTCTCGATTAGTGCTAG` has a log fluorescence of 1.06 z-score.
The log fluorescence of `TTAGGTTTCGCACTGGGTTAGTGCTAG` is reported as 3.28 z-score.
`TTAGAACTGAGACTGTATTAGTGCTAG` has a log fluorescence of -0.149 z-score.
`GACGGTATCCTACTGCTGCCGTGCTAG` gave a log fluorescence of -0.312 z-score.
The log fluorescence of `TTAGGACTGGGACTAGGTTAGTGCTAG` is reported as -0.186 z-score.
`TCATCTTTCTCTGCTACCACTGTGCTA` has a log fluorescence of 0.754 z-score.
For `TCAGCTCTGTTGCCTGGTACTGTGCTA`, the log fluorescence was -0.547 z-score.

Block 3
Target: TAR DNA-binding protein 43, full length, His tag (TARDBP, Homo sapiens, UniProt Q13148, residues 1-414)
Technique: RNA Bind-n-Seq
Molecule type: RNA
Medium: in vitro
Tested at: 20 nM
Notes: 6-mer, flanks averaged, single round
Together with: 150 mM LiCl
Relative to: input library
Reading: higher = stronger binding
`CACGCC` — result for “6-mer enrichment (R)”: 0.92.
`UAUCAA`: “6-mer enrichment (R)” 0.85.
Under “6-mer enrichment (R)”, `AUGCAC` is recorded as 0.901.
`GGCCAC` — result for “6-mer enrichment (R)”: 0.972.
`CAGGAA` — result for “6-mer enrichment (R)”: 0.852.
`UGGACA`: “6-mer enrichment (R)” 0.967.
`AUCCAA` — result for “6-mer enrichment (R)”: 0.799.
For `AAUGGG`, “6-mer enrichment (R)” read 1.17.
For `UCCUCU`, “6-mer enrichment (R)” read 0.923.
For `AAAUGU`, “6-mer enrichment (R)” read 1.04.
Under “6-mer enrichment (R)”, `ACGCCA` is recorded as 0.875.
For `GAUGCU`, “6-mer enrichment (R)” read 0.919.
For `GCCGUG`, “6-mer enrichment (R)” read 1.03.
For `CACAAC`, “6-mer enrichment (R)” read 0.848.
`GGAACC` — result for “6-mer enrichment (R)”: 0.92.
Under “6-mer enrichment (R)”, `UCACAU` is recorded as 0.861.
`GCACAC`: “6-mer enrichment (R)” 0.922.
`GGUAAA`: “6-mer enrichment (R)” 0.954.
`AUUCAU` — result for “6-mer enrichment (R)”: 0.907.
`CAUUCU`: “6-mer enrichment (R)” 0.893.
`GGUUAA`: “6-mer enrichment (R)” 0.992.

Block 4
Target: CCNB3, cyclin fold, Cln2 fusion (human)
Technique: yeast growth competition, sequencing
Medium: yeast
Notes: weak parent motif
Relative to: not given
Reading: higher = stronger binding
Starting sequence: ORC1 docking peptide (human); PRARKRLELGNLG; partner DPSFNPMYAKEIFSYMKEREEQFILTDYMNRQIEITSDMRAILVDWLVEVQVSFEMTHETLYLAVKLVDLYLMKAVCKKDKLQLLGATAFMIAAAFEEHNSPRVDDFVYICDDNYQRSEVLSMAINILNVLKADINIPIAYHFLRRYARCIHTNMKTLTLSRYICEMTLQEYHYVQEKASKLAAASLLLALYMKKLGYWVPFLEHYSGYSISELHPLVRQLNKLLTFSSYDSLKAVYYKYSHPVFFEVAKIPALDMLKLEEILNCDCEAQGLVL
For `PRARKREELGNLG [L7E]`, “normalised enrichment score” read 0.36.
`PRARQRLELGNLG [K5Q]`: “normalised enrichment score” -0.0249.
`PRARKRLELGNLY [G13Y]` — result for “normalised enrichment score”: -0.0387.
Under “normalised enrichment score”, `PRARKKLELGNLG [R6K]` is recorded as -0.0139.
Under “normalised enrichment score”, `PRARARLELGNLG [K5A]` is recorded as -0.0529.
For `TRARKRLELGNLG [P1T]`, “normalised enrichment score” read 0.123.
`PRAKKRLELGNLG [R4K]`: “normalised enrichment score” -0.0161.
`PRARERLELGNLG [K5E]` — result for “normalised enrichment score”: 0.234.
For `PRARKRLEQGNLG [L9Q]`, “normalised enrichment score” read 0.299.
`PRADKRLELGNLG [R4D]` — result for “normalised enrichment score”: 0.231.
`PRARKRLEFGNLG [L9F]`: “normalised enrichment score” 0.903.
For `PEARKRLELGNLG [R2E]`, “normalised enrichment score” read 0.527.
For `PRARKRLECGNLG [L9C]`, “normalised enrichment score” read 0.271.
`PRARKRLELGLLG [N11L]`: “normalised enrichment score” 0.206.
For `PRQRKRLELGNLG [A3Q]`, “normalised enrichment score” read 0.554.
`HRARKRLELGNLG [P1H]` — result for “normalised enrichment score”: 0.225.
Under “normalised enrichment score”, `PRARKRLELGNCG [L12C]` is recorded as 0.308.
For `PRARKRLELGCLG [N11C]`, “normalised enrichment score” read 0.141.
For `PFARKRLELGNLG [R2F]`, “normalised enrichment score” read 0.0694.
For `PRARKRLEDGNLG [L9D]`, “normalised enrichment score” read 0.0198.
For `PRARLRLELGNLG [K5L]`, “normalised enrichment score” read -0.0501.

Block 5
Target: Histone acetyltransferase KAT6A, winged helix 1, GST fusion (KAT6A, Homo sapiens, UniProt Q92794, residues 1-85)
Technique: protein binding microarray
Molecule type: double-stranded DNA, one strand shown
Medium: in vitro
Tested at: not given
Notes: 8-mer, flanks averaged, mean of 2 arrays, mostly near background
Relative to: not given
Reading: higher = stronger binding
Residues (chain): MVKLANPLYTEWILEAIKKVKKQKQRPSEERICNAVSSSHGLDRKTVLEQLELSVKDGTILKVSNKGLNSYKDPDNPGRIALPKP
With `CCAGGCCA` the E-score was -0.107.
`CGACCTCG` has an E-score of 0.134.
For `TAGTTTCA`, the E-score was -0.0512.
For `AGACATGC`, the E-score was -0.0429.
The E-score of `CCTAGCGC` is reported as 0.246.
`GTAAGGCA` has an E-score of -0.145.
With `GACATAAA` the E-score was 0.0477.
`ACCCTCCT` gave an E-score of -0.115.
The E-score of `AGATTCCT` is reported as -0.262.
The E-score of `AAACGGGC` is reported as 0.222.
`AGTGAGGG` has an E-score of -0.0736.
`CGGGACTC` gave an E-score of 0.247.
For `AACGCGTT`, the E-score was 0.31.
For `CATCTTCG`, the E-score was 0.0413.
With `CTCCGCTC` the E-score was 0.0712.
`CGGACTGA` gave an E-score of 0.0978.

Repeated from above (block 3):
`AUCCAA` — result for “6-mer enrichment (R)”: 0.799.
`CAUUCU`: “6-mer enrichment (R)” 0.893.
`UAUCAA`: “6-mer enrichment (R)” 0.85.
`GGAACC` — result for “6-mer enrichment (R)”: 0.92.
For `GCCGUG`, “6-mer enrichment (R)” read 1.03.
Under “6-mer enrichment (R)”, `UCACAU` is recorded as 0.861.
For `AAAUGU`, “6-mer enrichment (R)” read 1.04.
Under “6-mer enrichment (R)”, `AUGCAC` is recorded as 0.901.
`CACGCC` — result for “6-mer enrichment (R)”: 0.92.
`GGUAAA`: “6-mer enrichment (R)” 0.954.
For `UCCUCU`, “6-mer enrichment (R)” read 0.923.
`GCACAC`: “6-mer enrichment (R)” 0.922.
`AUUCAU` — result for “6-mer enrichment (R)”: 0.907.
`UGGACA`: “6-mer enrichment (R)” 0.967.
